Published values from different studies.
A part holds a random share of what one study measured.
Sequence of UniProt P29597 (whole entry, looked up): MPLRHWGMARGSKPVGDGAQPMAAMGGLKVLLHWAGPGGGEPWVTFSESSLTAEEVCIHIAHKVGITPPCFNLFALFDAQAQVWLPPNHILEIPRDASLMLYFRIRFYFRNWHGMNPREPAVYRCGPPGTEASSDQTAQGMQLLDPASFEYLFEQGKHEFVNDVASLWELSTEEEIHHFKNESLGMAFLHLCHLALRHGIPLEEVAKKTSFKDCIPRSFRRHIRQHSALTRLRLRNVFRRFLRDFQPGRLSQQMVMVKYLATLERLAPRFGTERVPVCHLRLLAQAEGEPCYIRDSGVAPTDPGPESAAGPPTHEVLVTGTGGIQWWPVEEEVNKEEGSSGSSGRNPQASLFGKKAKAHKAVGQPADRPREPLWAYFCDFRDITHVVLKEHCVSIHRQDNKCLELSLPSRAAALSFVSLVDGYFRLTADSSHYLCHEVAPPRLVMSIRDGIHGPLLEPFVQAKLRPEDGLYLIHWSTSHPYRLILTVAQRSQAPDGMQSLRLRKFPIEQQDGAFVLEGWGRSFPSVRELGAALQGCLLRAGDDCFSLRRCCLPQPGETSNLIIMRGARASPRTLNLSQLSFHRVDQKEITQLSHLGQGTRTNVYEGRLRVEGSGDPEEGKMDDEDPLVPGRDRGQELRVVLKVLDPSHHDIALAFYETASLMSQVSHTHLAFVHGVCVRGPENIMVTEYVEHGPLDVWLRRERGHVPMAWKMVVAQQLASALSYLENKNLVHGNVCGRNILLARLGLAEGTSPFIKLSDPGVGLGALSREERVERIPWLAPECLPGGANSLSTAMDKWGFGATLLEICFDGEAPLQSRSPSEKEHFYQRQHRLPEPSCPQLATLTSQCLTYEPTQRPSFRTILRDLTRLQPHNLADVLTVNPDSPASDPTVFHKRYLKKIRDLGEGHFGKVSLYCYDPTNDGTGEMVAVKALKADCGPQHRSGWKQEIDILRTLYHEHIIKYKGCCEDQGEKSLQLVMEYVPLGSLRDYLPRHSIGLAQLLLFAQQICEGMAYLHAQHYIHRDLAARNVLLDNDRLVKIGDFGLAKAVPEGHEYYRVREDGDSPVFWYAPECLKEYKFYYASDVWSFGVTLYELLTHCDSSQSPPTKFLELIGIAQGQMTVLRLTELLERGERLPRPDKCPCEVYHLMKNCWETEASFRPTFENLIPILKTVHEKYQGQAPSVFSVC

Block 1 — technique: universal PBM; molecule type: double-stranded DNA, one strand shown; sample: in vitro; concentration: 600 nM; reading: higher = stronger binding
Target: Sal-like protein 4, full length isoform A (SALL4, Homo sapiens, UniProt Q9UJQ4, residues 1-1053)
Sequence of UniProt Q9UJQ4 (whole entry, looked up): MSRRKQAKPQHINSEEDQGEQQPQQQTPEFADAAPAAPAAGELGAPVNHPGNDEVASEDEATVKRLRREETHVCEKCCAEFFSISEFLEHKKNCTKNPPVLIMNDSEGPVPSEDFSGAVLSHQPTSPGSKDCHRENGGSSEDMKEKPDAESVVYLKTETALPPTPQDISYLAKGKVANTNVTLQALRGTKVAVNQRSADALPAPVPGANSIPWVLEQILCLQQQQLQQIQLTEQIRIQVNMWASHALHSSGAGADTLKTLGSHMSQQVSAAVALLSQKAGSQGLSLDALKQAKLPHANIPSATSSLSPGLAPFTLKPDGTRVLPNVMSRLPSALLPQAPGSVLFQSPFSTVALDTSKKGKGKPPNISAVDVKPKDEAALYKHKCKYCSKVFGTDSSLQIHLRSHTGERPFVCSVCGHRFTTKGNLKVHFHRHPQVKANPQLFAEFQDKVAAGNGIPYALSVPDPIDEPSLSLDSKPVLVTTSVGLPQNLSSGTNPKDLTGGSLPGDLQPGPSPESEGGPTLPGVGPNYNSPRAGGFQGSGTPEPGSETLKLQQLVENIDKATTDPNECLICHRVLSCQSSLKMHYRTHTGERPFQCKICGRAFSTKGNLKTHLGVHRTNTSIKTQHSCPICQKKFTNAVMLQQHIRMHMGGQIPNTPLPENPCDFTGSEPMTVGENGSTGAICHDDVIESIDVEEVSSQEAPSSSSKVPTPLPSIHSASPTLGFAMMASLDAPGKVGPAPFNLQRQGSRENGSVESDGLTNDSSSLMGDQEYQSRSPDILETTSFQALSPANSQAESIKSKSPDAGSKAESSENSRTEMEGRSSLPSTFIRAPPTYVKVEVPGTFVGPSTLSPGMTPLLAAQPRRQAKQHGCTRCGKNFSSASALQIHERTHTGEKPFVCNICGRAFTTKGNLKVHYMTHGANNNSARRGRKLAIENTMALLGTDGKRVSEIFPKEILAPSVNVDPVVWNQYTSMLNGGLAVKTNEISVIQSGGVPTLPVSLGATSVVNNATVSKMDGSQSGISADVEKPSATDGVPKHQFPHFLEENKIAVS
Notes: 8-mer, flanks averaged, mean of replicates
Oligonucleotide	E-score
ATGTTGTC	0.0949
TCATGACA	0.0911
GGAATTCC	-0.106
GAGTCGAC	-0.124
CTCAGGAG	-0.165
ACACCCAA	-0.101
GCTAAGCA	-0.141
TTAGGGAA	0.195

Block 2 — target: Sox-I, HMG box (Salpingoeca helianthica); technique: Spec-seq; molecule type: double-stranded DNA, one strand shown; sample: in vitro; concentration: not given; notes: whole probe, mean of replicates; relative to: not given; reading: lower = stronger binding; all sequences stand within: GAGTCGTCTCGTCAGCAC … CCGTAGAGCACTCAGGTC
Construct (chain): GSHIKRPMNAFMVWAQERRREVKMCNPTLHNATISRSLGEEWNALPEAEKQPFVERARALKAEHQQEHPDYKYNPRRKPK
Oligonucleotide	relative binding energy [ln ratio]
CATGGAT	1.02
CATGTGG	1.25
CATGATA	0.323
AAGTGTT	-0.27
CATGAGA	1.06
CATGGCT	0.966
CATTGCG	0.879
CATTCTC	0.164

Other studies, line by line
Molecule	target	test	test system	conditions	scale	measurement	result
PhoQ, residues 284 288 289 292 302 303 ALVSVA	PhoP, residues 12 14 15 18 19 LHSVQ (Escherichia coli, UniProt P23836)	Sort-seq, measured: YFP reporter	E. coli	PhoQ-PhoP variant library, added: 10 µM Mg2+	relative to: high Mg2+ state, higher = stronger signaling	fold induction	1.29
COc1cc2ncnc(Nc3ccc(O)c(Br)c3)c2cc1OC	Non-receptor tyrosine-protein kinase TYK2 (TYK2, Homo sapiens, UniProt P29597)	enzyme activity, inhibitor		0.5 µM	relative to: control	remaining activity	96.5%

A few entries again (block 1):
Oligonucleotide	E-score
TTAGGGAA	0.195
